Experimental data from different studies.
Compare with care: the assays were run in different laboratories. Numbers after ± are the reported error.
ESR1: Estrogen receptor (ESR1, Homo sapiens, UniProt P03372)

The chains behind the UniProt entries cited, without tags or fusion partners. Residues count along the entry.
UniProt P03372, whole entry: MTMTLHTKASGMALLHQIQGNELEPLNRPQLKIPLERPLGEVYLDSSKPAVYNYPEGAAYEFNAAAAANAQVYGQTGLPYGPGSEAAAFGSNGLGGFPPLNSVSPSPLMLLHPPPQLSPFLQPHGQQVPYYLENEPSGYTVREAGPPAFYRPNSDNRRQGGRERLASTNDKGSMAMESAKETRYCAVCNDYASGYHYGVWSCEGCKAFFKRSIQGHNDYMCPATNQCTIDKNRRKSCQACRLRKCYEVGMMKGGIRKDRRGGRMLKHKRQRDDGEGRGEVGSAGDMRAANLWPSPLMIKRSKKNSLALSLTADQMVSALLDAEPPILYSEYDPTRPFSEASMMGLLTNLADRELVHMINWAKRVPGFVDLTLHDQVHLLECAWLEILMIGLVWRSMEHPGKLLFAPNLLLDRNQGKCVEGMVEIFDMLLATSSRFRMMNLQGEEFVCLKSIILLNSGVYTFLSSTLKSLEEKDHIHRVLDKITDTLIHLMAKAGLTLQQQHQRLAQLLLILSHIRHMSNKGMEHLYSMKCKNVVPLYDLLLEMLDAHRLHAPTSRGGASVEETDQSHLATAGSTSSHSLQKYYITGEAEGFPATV
UniProt Q96DB2, whole entry: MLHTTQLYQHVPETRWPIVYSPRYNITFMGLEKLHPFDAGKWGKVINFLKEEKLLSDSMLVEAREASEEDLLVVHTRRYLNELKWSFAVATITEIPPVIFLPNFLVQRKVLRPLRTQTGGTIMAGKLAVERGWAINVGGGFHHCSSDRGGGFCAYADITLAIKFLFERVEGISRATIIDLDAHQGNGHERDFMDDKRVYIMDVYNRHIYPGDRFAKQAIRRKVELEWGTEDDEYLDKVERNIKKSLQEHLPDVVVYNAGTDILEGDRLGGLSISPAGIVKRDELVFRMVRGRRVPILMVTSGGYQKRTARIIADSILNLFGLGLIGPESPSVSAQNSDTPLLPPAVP
UniProt A0A381MCS3, 1-451: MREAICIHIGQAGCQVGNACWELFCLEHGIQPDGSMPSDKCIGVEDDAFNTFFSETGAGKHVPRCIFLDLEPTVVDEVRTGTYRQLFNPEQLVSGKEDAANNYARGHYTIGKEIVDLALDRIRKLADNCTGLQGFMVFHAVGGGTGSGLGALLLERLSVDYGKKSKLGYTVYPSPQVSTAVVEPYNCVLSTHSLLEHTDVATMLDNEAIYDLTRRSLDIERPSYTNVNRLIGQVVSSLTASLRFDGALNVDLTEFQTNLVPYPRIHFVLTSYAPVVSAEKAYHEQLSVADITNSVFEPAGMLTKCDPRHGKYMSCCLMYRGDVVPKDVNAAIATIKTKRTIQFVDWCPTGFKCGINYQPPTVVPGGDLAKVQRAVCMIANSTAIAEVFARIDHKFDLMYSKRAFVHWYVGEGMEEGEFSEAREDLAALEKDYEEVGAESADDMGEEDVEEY
UniProt A4HTR0, 1-443: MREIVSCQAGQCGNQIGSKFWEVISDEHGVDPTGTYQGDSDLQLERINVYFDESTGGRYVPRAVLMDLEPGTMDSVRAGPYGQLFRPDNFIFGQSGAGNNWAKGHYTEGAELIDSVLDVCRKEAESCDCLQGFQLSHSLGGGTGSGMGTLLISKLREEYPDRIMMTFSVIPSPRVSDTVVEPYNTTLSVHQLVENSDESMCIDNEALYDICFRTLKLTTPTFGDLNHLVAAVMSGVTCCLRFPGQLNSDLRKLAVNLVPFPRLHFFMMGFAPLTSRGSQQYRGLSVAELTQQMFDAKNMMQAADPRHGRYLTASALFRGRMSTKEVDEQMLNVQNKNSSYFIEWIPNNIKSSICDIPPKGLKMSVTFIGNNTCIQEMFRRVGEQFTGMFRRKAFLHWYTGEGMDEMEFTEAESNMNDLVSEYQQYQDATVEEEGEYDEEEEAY
UniProt P31424, 21-1203 limits assumed: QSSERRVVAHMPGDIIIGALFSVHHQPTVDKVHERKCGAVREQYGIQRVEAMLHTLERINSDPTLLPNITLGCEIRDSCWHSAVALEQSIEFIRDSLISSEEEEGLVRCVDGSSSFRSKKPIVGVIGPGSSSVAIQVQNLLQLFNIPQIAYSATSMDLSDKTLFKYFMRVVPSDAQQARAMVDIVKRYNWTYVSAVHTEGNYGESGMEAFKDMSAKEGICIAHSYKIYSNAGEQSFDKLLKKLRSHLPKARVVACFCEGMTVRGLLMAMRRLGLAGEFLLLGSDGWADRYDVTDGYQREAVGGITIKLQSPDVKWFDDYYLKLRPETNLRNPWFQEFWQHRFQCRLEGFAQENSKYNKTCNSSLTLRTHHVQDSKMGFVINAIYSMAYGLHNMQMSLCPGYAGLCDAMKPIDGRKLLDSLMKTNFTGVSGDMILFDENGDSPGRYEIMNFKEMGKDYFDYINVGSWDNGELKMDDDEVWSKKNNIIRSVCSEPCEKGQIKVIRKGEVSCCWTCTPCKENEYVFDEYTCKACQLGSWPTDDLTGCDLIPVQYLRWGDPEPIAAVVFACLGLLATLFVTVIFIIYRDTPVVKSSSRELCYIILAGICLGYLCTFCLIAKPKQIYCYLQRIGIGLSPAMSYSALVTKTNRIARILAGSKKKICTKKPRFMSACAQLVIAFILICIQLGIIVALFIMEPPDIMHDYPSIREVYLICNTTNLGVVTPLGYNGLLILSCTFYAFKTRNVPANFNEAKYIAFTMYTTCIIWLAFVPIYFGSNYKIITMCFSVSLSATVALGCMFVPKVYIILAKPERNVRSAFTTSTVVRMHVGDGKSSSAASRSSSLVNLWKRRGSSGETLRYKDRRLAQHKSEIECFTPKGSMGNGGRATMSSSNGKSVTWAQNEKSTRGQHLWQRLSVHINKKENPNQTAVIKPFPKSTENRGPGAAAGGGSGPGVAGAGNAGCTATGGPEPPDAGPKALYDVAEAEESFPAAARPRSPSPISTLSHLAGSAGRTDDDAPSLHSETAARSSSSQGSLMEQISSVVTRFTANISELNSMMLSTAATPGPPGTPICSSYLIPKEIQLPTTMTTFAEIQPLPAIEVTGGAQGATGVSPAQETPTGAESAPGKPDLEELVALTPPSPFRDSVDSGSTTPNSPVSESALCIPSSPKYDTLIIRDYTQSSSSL
UniProt P40306, whole entry, looked up: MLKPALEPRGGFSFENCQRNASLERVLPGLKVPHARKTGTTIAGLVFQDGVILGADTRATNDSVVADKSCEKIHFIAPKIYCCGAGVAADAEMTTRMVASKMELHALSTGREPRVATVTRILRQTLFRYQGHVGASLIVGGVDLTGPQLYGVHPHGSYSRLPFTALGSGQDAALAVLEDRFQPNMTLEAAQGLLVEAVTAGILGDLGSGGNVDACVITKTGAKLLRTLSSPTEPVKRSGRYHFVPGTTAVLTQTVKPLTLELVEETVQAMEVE
UniProt Q8IXJ6, whole entry, looked up: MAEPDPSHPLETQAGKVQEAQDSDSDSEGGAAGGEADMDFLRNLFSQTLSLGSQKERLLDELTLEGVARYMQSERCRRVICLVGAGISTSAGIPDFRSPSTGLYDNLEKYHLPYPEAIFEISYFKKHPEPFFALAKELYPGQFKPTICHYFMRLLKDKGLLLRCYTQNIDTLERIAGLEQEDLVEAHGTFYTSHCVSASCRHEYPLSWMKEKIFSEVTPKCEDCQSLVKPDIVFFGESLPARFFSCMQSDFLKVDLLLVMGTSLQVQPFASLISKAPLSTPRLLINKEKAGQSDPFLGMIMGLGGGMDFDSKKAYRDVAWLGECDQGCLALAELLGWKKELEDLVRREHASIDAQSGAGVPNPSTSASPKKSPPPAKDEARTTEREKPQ
UniProt P31421, 19-872 limits assumed: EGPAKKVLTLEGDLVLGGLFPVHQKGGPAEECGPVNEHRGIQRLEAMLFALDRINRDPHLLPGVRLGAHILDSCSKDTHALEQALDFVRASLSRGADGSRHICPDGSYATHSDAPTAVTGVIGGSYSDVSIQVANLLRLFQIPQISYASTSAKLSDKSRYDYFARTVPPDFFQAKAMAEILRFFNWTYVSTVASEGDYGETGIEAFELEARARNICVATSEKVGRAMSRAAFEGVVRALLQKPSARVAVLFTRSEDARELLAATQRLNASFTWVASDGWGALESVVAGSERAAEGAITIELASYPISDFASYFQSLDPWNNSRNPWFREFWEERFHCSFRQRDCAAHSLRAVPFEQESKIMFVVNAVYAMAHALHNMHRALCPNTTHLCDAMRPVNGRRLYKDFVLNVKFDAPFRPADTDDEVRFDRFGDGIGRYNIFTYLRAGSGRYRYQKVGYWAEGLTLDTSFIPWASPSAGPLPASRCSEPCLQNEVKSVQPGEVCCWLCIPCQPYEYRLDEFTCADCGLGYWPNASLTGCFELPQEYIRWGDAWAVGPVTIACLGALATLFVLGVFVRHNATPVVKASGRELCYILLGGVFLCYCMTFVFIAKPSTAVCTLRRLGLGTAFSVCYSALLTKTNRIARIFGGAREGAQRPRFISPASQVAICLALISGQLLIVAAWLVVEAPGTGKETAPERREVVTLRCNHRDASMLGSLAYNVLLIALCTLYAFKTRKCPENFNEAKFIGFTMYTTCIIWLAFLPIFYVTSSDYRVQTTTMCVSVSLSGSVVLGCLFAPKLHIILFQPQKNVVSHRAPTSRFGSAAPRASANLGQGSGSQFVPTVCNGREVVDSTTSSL
UniProt Q9BV23, whole entry: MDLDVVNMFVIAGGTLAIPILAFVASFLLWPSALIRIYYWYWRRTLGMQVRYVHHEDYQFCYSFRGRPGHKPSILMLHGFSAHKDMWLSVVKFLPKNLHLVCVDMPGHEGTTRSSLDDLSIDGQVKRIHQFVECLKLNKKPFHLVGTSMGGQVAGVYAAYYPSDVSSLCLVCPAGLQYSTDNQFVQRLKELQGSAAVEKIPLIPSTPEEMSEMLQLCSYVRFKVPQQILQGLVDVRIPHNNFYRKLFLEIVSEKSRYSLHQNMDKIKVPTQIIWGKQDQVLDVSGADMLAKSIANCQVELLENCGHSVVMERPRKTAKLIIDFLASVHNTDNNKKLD
UniProt O95835, whole entry: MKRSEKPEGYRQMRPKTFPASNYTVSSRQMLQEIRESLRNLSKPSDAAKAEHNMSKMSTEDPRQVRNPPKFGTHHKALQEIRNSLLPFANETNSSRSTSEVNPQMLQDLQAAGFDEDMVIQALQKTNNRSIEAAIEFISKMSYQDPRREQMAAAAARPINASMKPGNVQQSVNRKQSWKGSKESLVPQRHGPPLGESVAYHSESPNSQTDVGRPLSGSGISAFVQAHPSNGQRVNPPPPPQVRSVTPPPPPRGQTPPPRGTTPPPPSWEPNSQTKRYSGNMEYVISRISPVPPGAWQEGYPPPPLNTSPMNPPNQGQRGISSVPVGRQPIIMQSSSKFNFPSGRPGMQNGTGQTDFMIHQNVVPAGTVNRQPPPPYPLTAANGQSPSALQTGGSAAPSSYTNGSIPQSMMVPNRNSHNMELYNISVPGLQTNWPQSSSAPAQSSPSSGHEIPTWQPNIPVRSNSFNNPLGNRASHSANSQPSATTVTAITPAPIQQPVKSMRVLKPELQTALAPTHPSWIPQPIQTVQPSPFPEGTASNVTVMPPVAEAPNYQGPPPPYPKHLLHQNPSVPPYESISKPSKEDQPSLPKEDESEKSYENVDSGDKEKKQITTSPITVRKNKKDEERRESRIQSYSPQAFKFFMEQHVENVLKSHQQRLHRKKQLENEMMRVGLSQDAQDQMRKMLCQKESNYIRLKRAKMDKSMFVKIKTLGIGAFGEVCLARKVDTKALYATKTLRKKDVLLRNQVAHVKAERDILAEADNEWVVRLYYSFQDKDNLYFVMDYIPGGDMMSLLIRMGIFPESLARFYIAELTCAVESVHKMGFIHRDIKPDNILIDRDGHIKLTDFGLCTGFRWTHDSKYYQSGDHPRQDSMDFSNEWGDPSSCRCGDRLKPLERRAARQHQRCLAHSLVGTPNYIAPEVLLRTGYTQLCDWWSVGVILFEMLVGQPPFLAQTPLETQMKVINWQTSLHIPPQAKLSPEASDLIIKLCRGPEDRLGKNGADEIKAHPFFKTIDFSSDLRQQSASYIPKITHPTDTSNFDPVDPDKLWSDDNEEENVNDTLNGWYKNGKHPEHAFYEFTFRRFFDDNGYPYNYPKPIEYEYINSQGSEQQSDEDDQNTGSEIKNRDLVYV
UniProt P45983, 1-384 isoform 3: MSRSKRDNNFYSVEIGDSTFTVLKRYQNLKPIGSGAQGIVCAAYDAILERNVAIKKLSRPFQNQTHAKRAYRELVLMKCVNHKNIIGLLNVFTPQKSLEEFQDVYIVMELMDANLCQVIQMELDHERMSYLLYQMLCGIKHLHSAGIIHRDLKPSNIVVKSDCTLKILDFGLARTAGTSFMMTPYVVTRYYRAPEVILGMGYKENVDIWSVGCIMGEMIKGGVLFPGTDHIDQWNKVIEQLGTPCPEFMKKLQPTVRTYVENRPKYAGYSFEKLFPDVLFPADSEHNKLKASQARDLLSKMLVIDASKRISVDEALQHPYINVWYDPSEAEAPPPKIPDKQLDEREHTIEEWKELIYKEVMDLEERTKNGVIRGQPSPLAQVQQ

| SMILES | target | assay | test system | setting | IC50 [nM] |
| --- | --- | --- | --- | --- | --- |
| CCCCCCCCCCCCCCCCNNC(=O)c1ccc(N(C)C)cc1 | HDAC11 (Homo sapiens, UniProt Q96DB2) | enzyme activity, inhibitor |  | with: myristoyl-SHMT2 peptide | 1000 |
| CC(=O)Nc1ccc(NC(=O)C(C)Sc2nnc(Nc3ccccc3F)s2)cc1 (centres unmarked) | CD28, with CD80 (Homo sapiens, UniProt P10747) | CD28–CD80 binding, inhibitor, competitive ELISA |  | with: biotinylated CD80 | 86700 |
| S=c1[nH]c2ccccc2s1 | MMP2 (Homo sapiens, UniProt P08253) | inhibitor |  |  | 102000 ± 12700 |
| CC(C)CNC(=O)CSc1nc2ccc(NC(=O)CSc3ccc(Br)cc3)cc2s1 | ESR1 | reporter gene, antagonist | HEC-1 transfected ERα luciferase reporter |  | > 50000 |
| COc1cc([C@@H]2c3cc4c(cc3C=C(C=O)[C@H]2C(=O)OCCCCCCBr)OCO4)cc(OC)c1OC | Tubulin alpha/beta heterodimer (Leishmania infantum, UniProt A0A381MCS3+A4HTR0) | tubulin polymerization, inhibitor |  | 37 °C, with: tubulin 1.2 mg/mL | 7000 ± 700 |
| COc1cc(C(=O)N2CCC(N3CCN(C)CC3)CC2)ccc1Nc1ncc2c(n1)N(C(C)C)c1ccccc1C(=O)N2C | MAPK7 (Homo sapiens, UniProt Q13164) | kinase activity |  |  | 125 ± 26 |
| N#Cc1cnc(Nc2nc3ccccc3o2)nc1-c1cccc(Br)c1 | Grm5 (Rattus norvegicus, UniProt P31424) | calcium mobilization, negative allosteric modulator |  | with: glutamate EC80 | > 30000 |
| CN1CC[C@H](c2c(O)cc(O)c3c(=O)cc(-c4cccc(Cl)c4)oc23)[C@H](O)C1 | Cyclin-dependent kinase 9, with cyclin T1 (CDK9, Homo sapiens, UniProt P50750) | inhibitor |  | with cyclin T1, GST-CTD substrate | 4.4 |
| CN1CCC[C@@H]1C(=O)N[C@@H](Cc1ccccc1)B(O)O | Proteasome subunit beta type-9 / Proteasome subunit beta type-10 (Homo sapiens, UniProt P28065+P40306) | β1i enzyme activity, inhibitor |  | with: Ac-PAL-AMC | 180 |
| CCCCCCCCCCCCNC(=S)NCCCC[C@H](NS(=O)(=O)c1ccccc1)C(=O)N[C@H](C)C(=O)N[C@@H](CCCNC(=N)N)C(N)=O | SIRT2 (Homo sapiens, UniProt Q8IXJ6) | deacetylation, inhibitor |  | NAD+ 500 µM, with: acetylated peptide 50 µM | 190 ± 20 |
| CC(C)CNC(=O)CSc1nc2ccc(NC(=O)CSc3ccc(Cl)cc3)cc2s1 | ESR1 | reporter gene, antagonist | HEC-1 transfected ERα luciferase reporter |  | > 50000 |
| NC(=O)c1cn(-c2ccc(F)cc2)c2ccc(CN3CCCCC3)cc2c1=O | Grm2 (Rattus norvegicus, UniProt P31421) | calcium mobilization, negative allosteric modulator |  |  | > 10000 |
| O=C(OC(C(F)(F)F)C(F)(F)F)N1CCc2cc(Br)ccc2C1 | ABHD6 (Homo sapiens, UniProt Q9BV23) | inhibitor, fluorescence |  |  | 72.7 ± 1.5 |
| Nc1nccc(-c2ccc(C3(c4ccc(Cl)cc4)CCNCC3)cc2)n1 | LATS1 (Homo sapiens, UniProt O95835) | kinase activity, inhibitor, radiometric HotSpot |  | with: ATP 10 µM | 43 |
| O=C(CC1Cc2ccccc2C1)N[C@H](CN1CC[C@@H](F)C1)[C@H](O)c1ccc(OC(F)(F)F)cc1 | UGCG (Canis lupus familiaris, UniProt A0A8I3MXG6) | inhibitor, item: glucosylceramide | MDCK | 24 h | 23.2 |
| COC(=O)[C@@]1(C)C=C(C(=O)Nc2cccc(C(=O)NC34CC(Nc5nccc(-c6cccnc6)n5)(C3)C4)c2)C(=O)CC1 | MAPK8 (Homo sapiens, UniProt P45983) | enzyme activity |  | with: glutathione 10 mM | 16 ± 2 |
| COc1cc([N+](=O)[O-])ccc1NC(=O)Nc1cnc(C#N)cn1 | CHEK1 (Homo sapiens, UniProt O14757) | enzyme activity, inhibitor |  | with: CDC25C substrate | > 10000 |
| O=C(Nc1ccc(-c2nc3ccc(NC(=O)C4CCCCC4)cc3s2)cc1)C1CCCCC1 | Tyrosine-protein kinase SYK, with FCER1G (SYK, Homo sapiens, UniProt P43405) | protein binding, inhibitor, TR-FRET |  |  | > 20000 |
| C[C@H](NC(=O)c1cc(C(=O)O)cc([C@H]2CCN[C@@H]2C(=O)O)c1)C(=O)O | Glutamate receptor ionotropic, NMDA 2D, with GluN1 (Rattus norvegicus, UniProt Q62645) | ion current, antagonist, two-electrode voltage clamp | Xenopus oocytes | GluN1/GluN2D, with: glycine 100 µM and glutamate 1 µM | 33800 ± 4470 |
| CS(=O)(=O)Oc1ccc(/C=C/c2c[nH]c3ccc(C#N)cc23)cc1 | IDO1 (Homo sapiens, UniProt P14902) | enzyme activity, inhibitor |  |  | > 50000 |
